Measured values from different studies.
Every numbered part comes from another study and shows a few of its results, in no order. Changes are numbered by the printed parent chain.

Study 1 — target: DBP, bZIP domain (human); method: DHFR protein complementation; medium: yeast; relative to: wild-type JUN-FOS pair; reading: higher = stronger binding; quantity: binding fitness
Notes: single substitutions, most at no-binding floor
Starting sequence: JUN, bZIP domain (human); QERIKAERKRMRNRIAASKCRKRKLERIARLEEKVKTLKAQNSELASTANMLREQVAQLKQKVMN; partner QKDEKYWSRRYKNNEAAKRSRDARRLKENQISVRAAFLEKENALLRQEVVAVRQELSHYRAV
A46I: -1.39 natural log
A46H: -1.48 natural log
L31F: -1.44 natural log
S43Q: -1.41 natural log
L38K: -1.54 natural log
Q55K: -1.22 natural log
E32Q: -1.51 natural log
A57S: -1.61 natural log

Study 2 — method: Spec-seq; form: double-stranded DNA, one strand shown; medium: in vitro; concentration: not given; notes: whole probe, mean of replicates; relative to: not given; reading: lower = stronger binding; quantity: relative binding energy
Target: POU domain, class 5, transcription factor 1, POU domain (Pou5f1, Mus musculus, UniProt P20263, residues 131-289)
Sequence of UniProt P20263 (131-289, looked up): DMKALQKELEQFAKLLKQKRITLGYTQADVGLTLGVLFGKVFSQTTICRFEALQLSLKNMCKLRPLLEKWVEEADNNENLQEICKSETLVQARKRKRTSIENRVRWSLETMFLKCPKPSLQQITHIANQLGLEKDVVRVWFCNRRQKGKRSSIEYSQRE
Constant ends, left off below: GAGTCGTCTCGTCAGCAC … ATCCGTAGAGCACTCAGGTC
AACGTA: 0.571 ln ratio
ATGTTC: 0.507 ln ratio
ACCCTA: 0.71 ln ratio
AGCGTA: 0.637 ln ratio
GCGTTA: 0.591 ln ratio
ATTTCT: 0.379 ln ratio
ATCTGC: -1.98 ln ratio
TTTCTA: 0.34 ln ratio

Study 3 — method: universal PBM; form: double-stranded DNA, one strand shown; medium: in vitro; concentration: 600 nM; reading: higher = stronger binding; quantity: E-score
Target: Sal-like protein 4, full length isoform A (SALL4, Homo sapiens, UniProt Q9UJQ4, residues 1-1053)
Sequence of UniProt Q9UJQ4 (whole entry, looked up): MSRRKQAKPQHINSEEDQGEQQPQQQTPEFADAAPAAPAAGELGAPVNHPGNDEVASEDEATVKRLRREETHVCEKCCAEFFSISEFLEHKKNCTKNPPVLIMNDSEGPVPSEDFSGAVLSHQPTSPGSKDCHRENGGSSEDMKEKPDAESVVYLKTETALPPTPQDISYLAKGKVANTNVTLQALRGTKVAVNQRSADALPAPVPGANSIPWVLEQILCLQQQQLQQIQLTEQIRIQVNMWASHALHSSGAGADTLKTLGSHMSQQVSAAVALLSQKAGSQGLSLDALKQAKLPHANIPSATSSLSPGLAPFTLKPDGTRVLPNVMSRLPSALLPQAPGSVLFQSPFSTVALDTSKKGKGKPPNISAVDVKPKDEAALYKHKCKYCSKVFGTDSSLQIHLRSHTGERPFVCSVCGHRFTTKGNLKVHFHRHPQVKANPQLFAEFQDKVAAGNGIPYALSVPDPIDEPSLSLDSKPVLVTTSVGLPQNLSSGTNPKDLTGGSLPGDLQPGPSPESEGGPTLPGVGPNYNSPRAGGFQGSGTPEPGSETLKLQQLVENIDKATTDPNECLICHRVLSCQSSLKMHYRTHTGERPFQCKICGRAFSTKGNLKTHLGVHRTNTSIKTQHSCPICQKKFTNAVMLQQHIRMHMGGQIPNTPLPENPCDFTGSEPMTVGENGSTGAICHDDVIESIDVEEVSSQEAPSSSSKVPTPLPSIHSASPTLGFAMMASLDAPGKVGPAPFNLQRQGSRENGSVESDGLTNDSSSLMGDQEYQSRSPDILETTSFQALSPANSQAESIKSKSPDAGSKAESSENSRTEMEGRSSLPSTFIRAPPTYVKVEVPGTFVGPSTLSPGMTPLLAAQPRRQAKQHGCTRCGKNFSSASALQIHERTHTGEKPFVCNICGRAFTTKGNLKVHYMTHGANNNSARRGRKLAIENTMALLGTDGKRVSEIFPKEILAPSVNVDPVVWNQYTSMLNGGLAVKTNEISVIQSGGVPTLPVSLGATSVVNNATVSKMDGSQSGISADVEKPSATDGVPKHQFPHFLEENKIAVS
Notes: 8-mer, flanks averaged, mean of replicates
ATGACTTC: 0.181
GATCTTTA: 0.188
AATAGCGG: -0.0323
CTAAGATA: 0.129
ACCGTTGC: -0.279
AGTTGTTC: 0.0842
CAATCAGC: -0.0926
CTGCAGTC: -0.302

Further values, each from its own experiment
CNC(=O)c1cc(Cl)cc(C)c1NC(=O)c1cc(Br)nn1-c1c(F)c(F)cc(F)c1F
remaining compound (mouse, microsomes or S9; 2 µM, 0.5 h): > 99%

Excerpt of the above (study 2):
AGCGTA: 0.637 ln ratio
AACGTA: 0.571 ln ratio
ATGTTC: 0.507 ln ratio
